Assay results collected from several papers.
Protocols differ between the studies behind these lines. ± marks the error that the study gave.
Route: intravenous

Cc1cc(C)n(CCN(CCN)CCCCCCNC(=O)[C@@H](N)Cc2c[nH]cn2)n1.[99Tc+].[C-]#[O+].[C-]#[O+].[C-]#[O+]
tissue uptake (BALB/c nude mice, A549 xenograft, bone; 24 h): 0.1 ± 0.01 %IA/g

CC(C)C[C@H](NC(=O)[C@@H](CCCCNC(=O)[C@@H](Cc1ccccc1)NC(=O)CCCCCCCNC(=O)CN1CCN(CC(=O)O)CCN(CC(=O)O)CCN(CC(=O)O)CC1)NC(=O)[C@H](Cc1ccc(O)cc1)NC(=O)[C@H](CO)NC(=O)[C@H](Cc1c[nH]c2ccccc12)NC(=O)[C@H](Cc1c[nH]cn1)NC(=O)[C@@H]1CCC(=O)N1)C(=O)N[C@@H](CCCNC(=N)N)C(=O)N1CCC[C@H]1C(=O)NCC(N)=O [indium-111 labelled]
tissue uptake (biodistribution; male athymic nude mice, DU-145 prostate cancer xenograft, stomach; 0.037 MBq, 0.5 h post-injection): 1.11 ± 0.66 %ID/g

COc1ccc(Nc2nc(Nc3ccc(OCCOCC[18F])cc3)ncc2Br)cc1
tissue uptake (ICR mice, S180 tumour-bearing, bone; 370 kBq, 120 min): 4.51 ± 0.71 %ID/g

O=C(NCC1OC2CCC=CCCC2O1)c1ccc([18F])nc1 (stereo not drawn)
tissue uptake (healthy female BALB/c nude mice, blood; 7.4 MBq per mouse, 2 min): 5.2 ± 0.5 %ID/g

COc1ccc(Nc2nc(Nc3ccc(OCCOCCOCC[18F])cc3)ncc2Br)cc1
tissue uptake (ICR mice, S180 tumour-bearing, muscle; 370 kBq, 5 min): 3.1 ± 0.05 %ID/g

CCCC[C@H](NC(=O)COCCOCCNC(=O)CN1CCN(CC(=O)O)CCN(CC(=O)O)CC1)C(=O)N[C@H]1CC(=O)NCCCC[C@@H](C(N)=O)NC(=O)[C@H](Cc2c[nH]c3ccccc23)NC(=O)[C@H](CCCNC(=N)N)NC(=O)[C@@H](Cc2ccccc2)NC(=O)[C@H](Cc2c[nH]cn2)NC1=O [fluorine-18 labelled]
tissue uptake (C57 mice B16-F10 melanoma, kidneys; 0.37 MBq, 0.5 h): 7.55 ± 1.13 %ID/g

CCCC[C@H](NC(=O)CNC(=O)CNC(=O)[C@H](CCCCNC(=O)[C@H](CC(=O)O)NC(=O)C(C)c1ccc(CC(C)C)cc1)NC(=O)CN1CCN(CC(=O)O)CCN(CC(=O)O)CCN(CC(=O)O)CC1)C(=O)N[C@H]1CC(=O)NCCCC[C@@H](C(N)=O)NC(=O)[C@H](Cc2c[nH]c3ccccc23)NC(=O)[C@H](CCCNC(=N)N)NC(=O)[C@@H](Cc2ccccc2)NC(=O)[C@H](Cc2c[nH]cn2)NC1=O (stereo partly drawn) [lutetium-177 labelled]
tissue uptake (C57 mice, tumour-bearing, muscle; 0.037 MBq, 24 h): 0.25 ± 0.13 %ID/g

O=C(NCC1OC2CCC=CCCC2O1)c1ccc(COCCOCCOCC[18F])cc1 (stereo not drawn)
tissue uptake (healthy female BALB/c nude mice, stomach; 7.4 MBq per mouse, 60 min): 2.3 ± 0.7 %ID/g

O=C([O-])CN1CCN(CC(=O)[O-])CCN(CC(=O)NC[C@H]2CC[C@H](C(=O)N[C@H](Cc3cnc4ccccc4c3)C(=O)NCCCC[C@H](NC(=O)N[C@@H](CCC(=O)O)C(=O)O)C(=O)O)CC2)CCN(CC(=O)[O-])CC1.[64Cu+2]
tissue uptake (ex vivo gamma counting; 22Rv1 tumour-bearing mice, stomach; 0.74 MBq, 1 h post-injection): 7.61 %ID/g

Excerpt of the above:
COc1ccc(Nc2nc(Nc3ccc(OCCOCCOCC[18F])cc3)ncc2Br)cc1
tissue uptake (ICR mice, S180 tumour-bearing, muscle; 370 kBq, 5 min): 3.1 ± 0.05 %ID/g
